Assay results collected from several papers.
Several values in a cell are separate wells, animals, samples, runs or records. ± marks the error that the study gave.

SMILES	test	test system	conditions	scale	endpoint	result
C[C@H](CCC(=O)NCC(=O)O)[C@H]1CC[C@H]2[C@@H]3CC[C@@H]4C[C@H](O)CC[C@]4(C)[C@H]3C[C@H](O)[C@]12C	–	healthy human volunteers, plasma	dose not given, 0 h, baseline phase, no drug	–	plasma concentration	160 ± 48 nM
COc1cc(Nc2ncc3c(n2)-c2ccc(Cl)cc2C(c2c(F)cccc2OC)=NC3)ccc1C(=O)O	–	human patients, plasma	oral, 40 mg twice daily, day 7, 12 h, added: pembrolizumab	–	plasma concentration at 12 h	512 ng/mL
Cc1cc(-c2nccc3c2ccn3CC(=O)Nc2ccc(-c3cnccn3)cn2)ccn1	–	human, plasma	oral, 7 mg single dose	–	plasma half-life	~12 h
COc1cc2c(cc1OC)CN(CCc1ccc(NC(=O)c3cc(OC)c(OC)cc3NC(=O)c3cnc4ccccc4c3)cc1)CC2	–	human, plasma	intravenous, 5.9 mg/kg, 123 min	–	plasma concentration	2520 nM
Cn1cc(Nc2nccc(-c3ccc4c(c3)CN(C3COC3)CC[C@H]4NC(=O)c3cn(C(C)(C)C)nn3)n2)cn1	–	human, whole blood	50 mg twice daily, day 7	relative to: pre-dose baseline	plasma cell count change	113%
O=C(O)CCCCCCCCC(=O)O	–	healthy human volunteers, plasma	dose not given, 0 h, control phase, probe drugs alone	–	plasma concentration	27.3 ± 2.4 nM
Cc1ccc(C(=O)N(CCCN)C(c2nc3snc(C)c3c(=O)n2Cc2ccccc2)C(C)C)cc1 (stereo not shown)	–	human patients, plasma	intravenous, 2 mg/day, day 3 of induction course, geometric mean	–	plasma concentration at 24 h	2.9 ng/mL
O=C(c1cc(Cc2n[nH]c(=O)c3ccccc23)ccc1F)N1CCN(C(=O)C2CC2)CC1	–	human	added: carboplatin	–	plasma protein binding	no effect
C[C@H](CCC(=O)O)[C@H]1CC[C@H]2[C@@H]3[C@H](O)C[C@@H]4C[C@H](O)CC[C@]4(C)[C@H]3CC[C@]12C	–	healthy human volunteers, plasma	dose not given, 0 h, baseline phase, no drug	–	plasma concentration	797 ± 194 nM
CN1CCN(c2ccc(OC(F)(F)F)c(Nc3ncc4c(n3)-c3c(c(C(N)=O)nn3CCO)CC4)c2)CC1	LC-MS/MS	human, plasma	oral, 12 mg/m2, 24 h post-dose	–	plasma concentration	21.2 ng/mL and 12.9 ng/mL and 34 ng/mL and 30.3 ng/mL and 28.1 ng/mL

Repeated from above:
SMILES	test	test system	conditions	scale	endpoint	result
C[C@H](CCC(=O)O)[C@H]1CC[C@H]2[C@@H]3[C@H](O)C[C@@H]4C[C@H](O)CC[C@]4(C)[C@H]3CC[C@]12C	–	healthy human volunteers, plasma	dose not given, 0 h, baseline phase, no drug	–	plasma concentration	797 ± 194 nM
